Assay results from different studies.
Compare with care: the assays were run in different laboratories. Several values in a cell are separate wells, animals, samples, runs or records. ± gives the spread as reported.
Sequence of UniProt P08183 (whole entry, looked up): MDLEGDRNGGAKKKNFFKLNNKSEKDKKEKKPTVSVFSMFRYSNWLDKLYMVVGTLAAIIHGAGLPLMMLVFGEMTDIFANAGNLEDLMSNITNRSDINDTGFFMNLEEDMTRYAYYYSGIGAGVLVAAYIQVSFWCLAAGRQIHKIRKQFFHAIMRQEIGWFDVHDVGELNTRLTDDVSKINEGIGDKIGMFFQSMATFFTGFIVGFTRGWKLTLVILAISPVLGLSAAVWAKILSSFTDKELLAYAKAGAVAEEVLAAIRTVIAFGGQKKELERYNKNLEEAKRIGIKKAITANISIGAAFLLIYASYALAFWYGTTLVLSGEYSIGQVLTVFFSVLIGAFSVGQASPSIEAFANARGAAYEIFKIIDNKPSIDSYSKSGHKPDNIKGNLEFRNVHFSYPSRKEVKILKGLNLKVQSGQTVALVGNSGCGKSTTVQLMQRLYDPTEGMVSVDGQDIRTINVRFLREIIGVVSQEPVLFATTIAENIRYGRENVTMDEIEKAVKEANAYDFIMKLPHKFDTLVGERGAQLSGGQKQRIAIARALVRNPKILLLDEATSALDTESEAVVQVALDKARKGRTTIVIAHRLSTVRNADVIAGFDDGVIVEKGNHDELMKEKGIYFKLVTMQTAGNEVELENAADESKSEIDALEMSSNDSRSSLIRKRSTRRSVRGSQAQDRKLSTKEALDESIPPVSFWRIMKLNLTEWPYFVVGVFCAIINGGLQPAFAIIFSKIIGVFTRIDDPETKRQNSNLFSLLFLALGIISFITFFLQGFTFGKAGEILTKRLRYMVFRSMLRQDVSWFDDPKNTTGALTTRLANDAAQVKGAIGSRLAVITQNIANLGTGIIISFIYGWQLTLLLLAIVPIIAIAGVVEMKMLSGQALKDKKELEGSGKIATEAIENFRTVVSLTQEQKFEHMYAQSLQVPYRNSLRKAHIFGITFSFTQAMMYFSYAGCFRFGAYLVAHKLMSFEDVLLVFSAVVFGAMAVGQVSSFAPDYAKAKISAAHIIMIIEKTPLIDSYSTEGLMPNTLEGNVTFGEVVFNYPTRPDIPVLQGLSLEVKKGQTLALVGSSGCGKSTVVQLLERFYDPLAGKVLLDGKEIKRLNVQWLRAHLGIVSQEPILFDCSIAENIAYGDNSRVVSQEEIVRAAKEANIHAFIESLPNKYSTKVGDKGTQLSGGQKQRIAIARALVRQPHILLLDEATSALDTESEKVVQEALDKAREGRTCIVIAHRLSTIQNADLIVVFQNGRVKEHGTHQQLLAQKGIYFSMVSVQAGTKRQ

`CC[C@H](CO)N(CCN(N=O)[C@H](CC)CO)N=O`: “revertant colonies per plate” 20.3 ± 6 (Salmonella typhimurium; mutagenicity, Ames plate incorporation; TA1535; 500 µg/plate, without S9, methanol).
The viability of `COc1cc(CCc2cc(OC)c(O)c(OC)c2)ccc1O` is reported as 70.7 ± 7.93% (3T3-L1 pre-adipocytes; MTT; 20 µM, 48 h).
`NC(=O)N/N=C/c1ccc([N+](=O)[O-])o1` gave an inhibition of -15.9% (THP-1; pyroptotic LDH release; 2 µM, 40 min, together with: LPS then nigericin).
For `Cc1cc(O)c2c(c1)C(=O)c1cc(O)cc(O)c1C2=O`, the viability was 91.2 ± 7.62% (HK-2 co-cultured with HepaRG; MTT; 16.67 µM, 48 h; baseline: untreated control).
With `CCCCCCCCN(CCC(=O)Nc1ccccc1)C(=O)[C@@H]1CCCN1` the viability was 70 ± 5% (Lmna G609G/G609G mouse fibroblasts; MTT; 2 µM, 72 h; baseline: vehicle-treated wild type).
For `O=C(Nc1nc2cccc(-c3ccc(CN4CCS(=O)(=O)CC4)cc3)n2n1)C1CC1`, “patients with Hypotension” read 0% (rheumatoid arthritis patients; oral, 100 mg twice daily, 4 weeks, TEAE regardless of relatedness).
With `COc1c(O)c(C)cc2c1C(=O)c1c(O)cccc1C2=O` the viability was 94.9 ± 11.1% (HK-2 co-cultured with HepaRG; MTT; 16.67 µM, 48 h; baseline: untreated control).
`CCc1c(-c2ccccc2)c(-c2ccccc2)nn1-c1ccccc1-c1cccc(OCC(=O)O)c1` has a viability of 46.8% and 42.2% and 45.9% and 52.7% and 50.2% and 52.6% (mouse bone marrow macrophages; CCK-8; 100 µM, 4000 cells; baseline: untreated).
For `O[C@H]1[C@H](OCc2cn(Cc3ccc(F)cc3)nn2)O[C@H]2[C@@H]1OC[C@H]2O`, viability read “not toxic” (CHO-K1; cytotoxicity, CellTiter-Glo; up to 30 µM, 72 h).
`COc1cc2ncnc(Nc3ccc(Oc4ccccc4)cc3C)c2cc1OC.O=C(O)C(F)(F)F` has a viability of 0.951 fraction of control and 0.931 fraction of control and 0.943 fraction of control and 0.989 fraction of control and 0.954 fraction of control and 0.936 fraction of control and 0.957 fraction of control and 0.903 fraction of control (Calu-6 (KRAS Q61K); resazurin; concentration not given, 72 h, together with: trametinib 0 nM).
With `COC[C@H](NC(=O)c1cnc(C)s1)C(=O)N[C@@H](COC)C(=O)N[C@@H](Cc1ccccc1)C(=O)[C@@]1(C)CO1` the inhibition was -12% (THP-1; pyroptotic LDH release; 2 µM, 40 min, together with: LPS then nigericin).
`CC(C)(c1ccc(O)cc1)c1ccc(O)cc1` has a viability of 53 ± 8% (HepG2 spheroids; annexin V/PI flow cytometry; 10 µM, 96 h).
`CCO[C@H]1CN(C2CCC(O)(c3ccc4c(c3)OCO4)CC2)C[C@@H]1NC(=O)CNC(=O)c1cccc(C(F)(F)F)c1` (stereo partly drawn): viability “no effect” (THP-1; Hoechst/PI staining; 10 µM, 5 h, together with: 10 nM CCL2).
`Cc1ccc(CNC(=O)Cn2cc(CSc3nc4ccccc4[nH]3)nn2)cc1` has a viability of 13.8% (HEK293; MTT; 62.5 ppm).
The viability of `O=C1c2cccc(O)c2C(=O)c2c(O)cc(CO)cc21` is reported as 68.3 ± 8.04% (HK-2 co-cultured with HepaRG; MTT; 66.67 µM, 48 h; baseline: untreated control).
Under “CL/F geometric mean”, `CC[C@H]1[C@@H](O)[C@@H]2[C@H](CC[C@]3(C)[C@@H]([C@H](C)CCNC(=O)NS(=O)(=O)c4ccc(C(C)(C)C)cc4)CC[C@@H]23)[C@@]2(C)CC[C@@H](O)C[C@@H]12` is recorded as 14.2 L/h (ABCB1 (Homo sapiens, UniProt P08183); substrate; human, plasma; dose not given, alone).
Under viability, `COc1ccc(Cn2cc(CO[C@@H]3O[C@H]4[C@H](OC[C@H]4O)[C@H]3O)nn2)cc1` is recorded as “not toxic” (CHO-K1; cytotoxicity, CellTiter-Glo; up to 30 µM, 72 h).
The viability of `COc1c(O)c(C)cc2c1C(=O)c1c(cc(O)c(O)c1O)C2=O` is reported as 106 ± 18.3% (HK-2 co-cultured with HepaRG; MTT; 266.67 µM, 24 h; baseline: untreated control).

Repeated from above:
With `CCCCCCCCN(CCC(=O)Nc1ccccc1)C(=O)[C@@H]1CCCN1` the viability was 70 ± 5% (Lmna G609G/G609G mouse fibroblasts; MTT; 2 µM, 72 h; baseline: vehicle-treated wild type).
